Results gathered from unrelated publications.
Every numbered part comes from another study and shows a few of its results, in no order.

Study 1
Target: RNA binding protein fox-1 homolog 2, RRM domain, GST-SBP tag (RBFOX2, Homo sapiens, UniProt O43251-10, residues 100-194)
Technique: RNA Bind-n-Seq
Molecule type: RNA
Sample: in vitro
Concentration: 365 nM
Notes: natural RNA segment, single round, ends assumed
Reference: no-protein control
Reading: higher = stronger binding
Constant ends, left off below: GGGAGUUCUACAGUCCGACGAUC … UGGAAUUCUCGGGUGCCAA
Residues (chain): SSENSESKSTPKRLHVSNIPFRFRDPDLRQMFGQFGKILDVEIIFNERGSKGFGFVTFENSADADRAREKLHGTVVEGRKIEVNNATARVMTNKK
Sequence	RBNS enrichment (R)
UGCGCUGACCGCUGCAUGGUGUCGUGACCUGGGCCUCAUUUGUAGCUGCACUGCCUUUCCUUGUCUGCAAAGUUGGUUUUGUCCACUCUGACCAAGACCUCUAGUUUUUG	0.636
GGUGGGUGACACGCCUUUAAUCUCAGCACUUGGGAGGAAGAGGCAGGUGAAUCUCUGGGUUAGGACCAGUAUGGUUUGCAUAGCAAGUUCCAGAGUACACAGUGAAACAC	0.351
UGCUAUGCGCCCUAUUAGGAAGAGAGAGAGAGAGAAAGAGAGAGAGAGAGAAUGAGUCCUCCCUCAGUUGCUGCCUCUCACUCCUGGUGACAUGGUGCCACCCAAGCUUG	3.64
AUGAAGGGAGCUCAGGAGAGCCGUCUUCAGCUGGGCUGGGGUUGGGGCUGCUGUGAGGAAAACCUGCCAUUGUGGCCCUGGAGAGUCACCAGCAGCUCUUGGGAAGGACU	0.464
UUGAUAAUAAAUUAUACACUAUGAAACCGCCAUUGGGCUACUGUAGAUUUGUAUCCUUGAUGAAUCUGGGGUUUCCAUCAGACUGAACUUACACUGUAUAUUUUGCAAUA	1.51
AUUUGUCCUUUUCUUACUGGCAGGUAGUUGCUCACAUAUUCAUCUCUUGCCAAAUAAGGGCCUGCUCCUCGUGGGAGACCACAGGUGUACAGUCGGUGGCCUUGUACCUG	0.427
ACAUGAGUAAUCAAAAUUAAAUUAUAGCAUAAUGAAAUUAGACUCUUAACAGGUACGGCACACACAAGUUAAUAGUACUCUGCUAUAGGUGCUAUGUUACUUACAAGUAU	0.382
ACAUUUCUUCUCCCAACUAAAAAUGUAAGAAGAAAAAAAAAUUUUUUUCUUUUUCUCUUUUUUUUUUUUUUUGUGGUACAGAAGUUUUUUGUUUGGUUAUUUGUUUGUUU	1.23

Study 2
Target: Interferon regulatory factor 5, full length, phosphomimetic (IRF5, Homo sapiens, UniProt Q13568-2, residues 1-514, S451D/S453D/S456D/S462D)
Technique: protein-binding microarray
Molecule type: double-stranded DNA, one strand shown
Sample: in vitro
Concentration: 940 nM top
Notes: 60-bp whole probe
Together with: salmon DNA 0.4 mg/ml
Reference: random background probes
Reading: higher = stronger binding
Constant ends, left off below: GCCTAGCAC … GTCTTGATTCGCTTGACGCTGCTG
Sequence	fitted relative affinity [z-score]
TAAGGTTTCGACTATCGGTTAGTGCTA	6.82
GACGGACTGGGGCTGGGGACGTGCTAG	0.231
GACGGTTTCATACTGCTGACGTGCTAG	3.39
GACGGTCGCCTTCTCCTGACGTGCTAG	-0.128
CGAGTTTCTATTTTCTGAATGTGCTAG	6.12
CTGGGTATTTTTCTAAACCAGTGCTAG	0.817
GACGGACTGGGACGGGGGACGTGCTAG	0.631
TTGACTCTTTCTGTCAGTTTGTGCTAG	1.15
TTAGGTATCGACTATCGGTTCGTGCTA	5.9
GAAATTCTCATTTCCAATTAGTGCTAG	1.59
TACGGTTCCGGTTTCGGGACGTGCTAG	5.35
TTAGGAATCGGGTATCGGTTAGTGCTA	3.77
TCACTTCTCTAACCTCTCACTGTGCTA	1.67
TTAGATATCGGGTTTTGATTAGTGCTA	0.676
TCACTTCTGGACTGTTTGACTGTGCTA	0.619
AGAGAGAGTGAGGAACAACAGTGCTAG	-0.094
GACGGACTGGGGTATCGGAACGTGCTA	0.783
TTAGATTACAGTCTCGATTAGTGCTAG	2.47

Study 3
Target: Prothrombin, mature alpha-thrombin (F2, Homo sapiens, UniProt P00734)
Technique: aptamer microarray, sandwich
Molecule type: DNA with 2'F-ANA
Sample: in vitro
Concentration: 200 nM
Notes: whole 15-mer aptamer, many near background
Together with: Cy3 exosite-II aptamer, 400 nM
Reading: higher = stronger binding
Sequence: GGTTGGTGTGGTTGG
Modification	mean fluorescence intensity [a.u.]
2'F-ANA at 1 6 7 8	229
2'F-ANA at 5 6 7 9 12 14	47
2'F-ANA at 1 3 5 6 10 11 12	55.3
2'F-ANA at 1 3 4 5 8 10 11 13 14 15	48.1
2'F-ANA at 4 6 9 10 13 14	60.2
2'F-ANA at 2 5 6 10 12 13 14	45.6
2'F-ANA at 3 7 8 11	1210
2'F-ANA at 2 8 9 12	775
2'F-ANA at 1 2 4 5 6 10 12 14 15	49.1
2'F-ANA at 1 5 6 7 14	46.5
2'F-ANA at 4 6 8 9 11 13 14	66.1
2'F-ANA at 2 4 5 6 10 12 13 14	50.7
2'F-ANA at 1 5 7 8 12 15	129
2'F-ANA at 1 3 5 7 12 13 15	99.2
2'F-ANA at 3 4 5 6 8 14	47.6
2'F-ANA at 1 2 3 5 6 8 11 14 15	56.2
2'F-ANA at 4 5 8 13	51.1

Study 4
Target: TAR DNA-binding protein 43, full length, His tag (TARDBP, Homo sapiens, UniProt Q13148, residues 1-414)
Technique: RNA Bind-n-Seq
Molecule type: RNA
Sample: in vitro
Concentration: 20 nM
Notes: 6-mer, flanks averaged, single round
Together with: 150 mM LiCl
Reference: input library
Reading: higher = stronger binding
Sequence	6-mer enrichment (R)
UCCCUU	1.18
CAGUUU	1.02
CGUUGU	1.06
UUGCCU	1.06
AACCUC	0.842
UGGGAG	1.26
AUCGUC	0.995
UAUACU	0.895
UGACAA	0.855
AAACUA	0.836
CCGCCA	0.962
UGCUUU	1.11
ACCAGG	0.898
AUCUAG	0.82
AAUAAG	1.05
GUCCUC	0.897
CCCUUU	1.24
CAAACG	0.792

Excerpt of the above (study 4):
Sequence	6-mer enrichment (R)
AUCUAG	0.82
AAACUA	0.836
AUCGUC	0.995
GUCCUC	0.897
UGGGAG	1.26
CGUUGU	1.06
AACCUC	0.842
AAUAAG	1.05
CCCUUU	1.24
CAAACG	0.792
